Measurements gathered from unrelated publications.
Numbered parts are unrelated; each lists some results of a single study. Positions count from the first letter of the parent shown.

Sample 1 — method: DHFR PCA, deep sequencing; matrix: yeast; together with: (+)-ABA 58 µM; reference: wild-type fitted maximum; direction: higher = stronger binding
Target: ABI1, truncated, D143A, DHFR fusion (Arabidopsis thaliana)
Notes: methotrexate growth selection, single substitutions
Starting sequence: PYL1, truncated, DHFR fusion (Arabidopsis thaliana); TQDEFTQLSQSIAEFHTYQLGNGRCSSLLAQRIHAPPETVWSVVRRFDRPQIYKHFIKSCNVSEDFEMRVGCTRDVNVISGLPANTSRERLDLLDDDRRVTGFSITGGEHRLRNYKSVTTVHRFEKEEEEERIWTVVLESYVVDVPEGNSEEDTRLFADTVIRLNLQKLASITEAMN
| Substitution | relative binding score [%] |
| --- | --- |
| Q167S | 84.7 |
| K58V | 58.1 |
| D97C | 78.7 |
| G71V | -1.61 |
| G81W | -0.958 |
| Y115W | 45.1 |
| Y53F | 62.2 |
| V142R | 68.2 |
| N177C | 88.6 |
| E125V | 101 |
| K54S | 2.18 |
| L93H | 91.8 |
| E109M | 71 |
| Y53A | 18.2 |
| E130Y | 91.8 |
| E38F | 27.7 |
| G107R | 35.3 |
| E89F | -0.277 |
| A175M | 78.2 |
| F157T | 4.57 |
| A175H | 80.3 |
| G23L | 62.7 |
| S11L | 71.3 |
| V121S | -6.46 |
| L8G | 20.3 |

Sample 2 — target: CCNE2, cyclin fold, Cln2 fusion (human); method: yeast growth competition, sequencing; matrix: yeast; notes: strong parent motif; reference: not given; direction: higher = stronger binding
Starting sequence: SCAPER docking peptide (human); SNARRSLNFGGST
| Substitution | normalised enrichment score |
| --- | --- |
| SNARKSLNLGGST [R5K F9L] | 0.15 |
| SNANRSLNFGGST [R4N] | 0.659 |
| SNARRSLNNGGST [F9N] | -0.275 |
| SNARRSHNFGGST [L7H] | 0.409 |
| SNARRSLNFAGST [G10A] | 1.04 |
| SNARRSSNFGGST [L7S] | 0.987 |
| SNADRSLNFGGST [R4D] | 0.29 |
| SNARRSLNFGGYT [S12Y] | 1.49 |
| SNARRSLNFGGAT [S12A] | 1.78 |
| SNARRSLNFGGSP [T13P] | 1.24 |
| LNARRSLNFGGST [S1L] | 1.35 |
| SNARRSLNFGGSD [T13D] | 2.1 |
| SNARRSLNFRGST [G10R] | 0.64 |
| SNARRSLNFKGST [G10K] | -0.251 |
| SNQRRSLNFGGST [A3Q] | -0.789 |
| SPARRSLNFGGST [N2P] | 1.43 |
| SNARRSLNIGGST [F9I] | 0.409 |
| SNARRSLNRGGST [F9R] | 0.858 |
| SNARFSLNFGGST [R5F] | 0.175 |
| YNARRSLNFGGST [S1Y] | 1.05 |
| SNARRSLNFSGST [G10S] | 0.55 |
| SNARRSLIFGGST [N8I] | 1.52 |
| SNARRSLNFGGCT [S12C] | 1.21 |
| SNARRSLNFGQST [G11Q] | 1.37 |
| SNFRRSLNFGGST [A3F] | 1.61 |

Sample 3 — method: protein binding microarray; form: double-stranded DNA, one strand shown; matrix: in vitro; tested at: not given; reference: not given; direction: higher = stronger binding
Target: Histone acetyltransferase KAT6A, winged helix 1, GST fusion (KAT6A, Homo sapiens, UniProt Q92794, residues 1-85)
Notes: 8-mer, flanks averaged, mean of 2 arrays, mostly near background
Construct (chain): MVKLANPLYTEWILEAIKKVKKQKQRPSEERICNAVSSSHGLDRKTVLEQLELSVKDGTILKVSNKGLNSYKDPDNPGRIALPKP
| Sequence | E-score |
| --- | --- |
| CGAATCCA | -0.126 |
| GTTTCTAA | 0.0763 |
| ATCCTTAG | -0.121 |
| AAATGTAA | -0.131 |
| AATGCCGA | 0.257 |
| GACTGATA | -0.158 |
| CCCGGACA | 0.205 |
| CACATCCA | -0.094 |
| AGCTATAC | -0.0156 |
| AGCAGTGA | -0.118 |
| GAGCAAGA | -0.184 |
| ACTAGTCC | 0.0649 |
| GACACGCA | 0.18 |
| CCTCGCCA | -0.0224 |
| AGATTGAC | 0.0431 |
| CTTTTCAA | -0.153 |
| GAACCGAC | 0.128 |
| CTGAGCTC | -0.122 |
| AACGCCTT | 0.166 |
| CGTGTTGA | -0.143 |
| ATCCGACC | 0.0881 |
| GCCTACAA | -0.135 |

Sample 4 — target: CEP164, C-terminal peptide (human); method: DHFR complementation, deep sequencing; matrix: yeast; reference: wild type; direction: higher = weaker binding
Notes: single substitutions, model-inferred values
Starting sequence: PDZK1, PDZ domain 2 (human); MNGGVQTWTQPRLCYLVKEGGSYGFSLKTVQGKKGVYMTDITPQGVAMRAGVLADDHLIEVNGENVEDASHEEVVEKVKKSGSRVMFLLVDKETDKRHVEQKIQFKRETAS; partner HNRVKVYRF
| Substitution | binding free energy change |
| --- | --- |
| G45W | 0.708 kcal/mol |
| F87P | 1.06 kcal/mol |
| K96C | -0.0221 kcal/mol |
| K79S | 0.526 kcal/mol |
| L13I | 0.0133 kcal/mol |
| T42S | 0.36 kcal/mol |
| G82T | 0.857 kcal/mol |
| M1A | -0.193 kcal/mol |
| K102I | 0.0372 kcal/mol |
| T94G | -0.0576 kcal/mol |
| Q6S | -0.0127 kcal/mol |
| K28Q | -0.0191 kcal/mol |
| L16E | 1.46 kcal/mol |
| A110L | -0.141 kcal/mol |
| L27Q | 1.2 kcal/mol |
| E72L | 0.535 kcal/mol |
| M86S | -0.284 kcal/mol |
| T109I | -0.152 kcal/mol |
| T9Y | 0.0585 kcal/mol |
| G35T | 1.16 kcal/mol |
| G32S | 0.409 kcal/mol |
| K77C | 0.25 kcal/mol |
| P43Y | 0.228 kcal/mol |
| K80Q | 0.487 kcal/mol |
| S70T | 0.012 kcal/mol |

Sample 5 — method: aptamer microarray, sandwich; form: DNA with 2'F-ANA; matrix: in vitro; tested at: 200 nM; together with: Cy3 exosite-II aptamer, 400 nM; direction: higher = stronger binding; sequence: GGTTGGTGTGGTTGG
Target: Prothrombin, mature alpha-thrombin (F2, Homo sapiens, UniProt P00734)
Notes: whole 15-mer aptamer, many near background
| Modification | mean fluorescence intensity [a.u.] |
| --- | --- |
| 2'F-ANA at 1 2 11 15 | 148 |
| 2'F-ANA at 3 5 10 11 13 14 | 50.5 |
| 2'F-ANA at 4 6 9 11 12 13 | 238 |
| 2'F-ANA at 6 7 8 10 12 15 | 217 |
| 2'F-ANA at 2 3 4 5 6 7 9 10 11 13 15 | 52.1 |
| 2'F-ANA at 2 5 8 9 10 12 13 14 15 | 46.5 |
| 2'F-ANA at 5 7 8 9 11 12 15 | 137 |
| 2'F-ANA at 1 2 3 6 7 12 13 14 | 74 |
| 2'F-ANA at 2 4 6 7 10 12 15 | 131 |
| 2'F-ANA at 1 2 3 7 12 14 | 113 |
| 2'F-ANA at 4 5 7 8 9 10 11 13 | 45.7 |
| 2'F-ANA at 2 3 4 7 11 12 13 14 15 | 307 |
| 2'F-ANA at 1 2 4 5 7 13 14 | 50.1 |
| 2'F-ANA at 2 3 4 7 8 10 11 14 15 | 173 |
| 2'F-ANA at 1 3 4 5 8 12 | 175 |
| 2'F-ANA at 1 11 12 | 365 |
| 2'F-ANA at 4 7 8 10 12 14 | 136 |
| 2'F-ANA at 1 2 3 8 10 12 13 14 | 50.3 |
| 2'F-ANA at 1 4 7 11 14 15 | 53.2 |
| 2'F-ANA at 1 2 4 5 8 9 10 11 13 15 | 125 |
| 2'F-ANA at 1 2 6 8 10 12 15 | 71.6 |
| 2'F-ANA at 1 4 10 13 14 15 | 51.1 |
| 2'F-ANA at 1 4 5 6 10 11 12 15 | 51.5 |

Other studies, line by line
| Molecule | target | assay | test system | setting | how to read | endpoint | result |
| --- | --- | --- | --- | --- | --- | --- | --- |
| PhoQ, residues 284 288 289 292 302 303 GNNTDL | PhoP, residues 12 14 15 18 19 LYFRQ (Escherichia coli, UniProt P23836) | Sort-seq, item: YFP reporter | E. coli | PhoQ-PhoP variant library, together with: 10 µM Mg2+ | reference: high Mg2+ state, higher = stronger signaling | fold induction | 3.87 |

Some of these lines once more (sample 1):
| Substitution | relative binding score [%] |
| --- | --- |
| E130Y | 91.8 |
| A175H | 80.3 |
| Q167S | 84.7 |
| E38F | 27.7 |
| A175M | 78.2 |
| D97C | 78.7 |
| E89F | -0.277 |
| F157T | 4.57 |
| E125V | 101 |
| Y53A | 18.2 |
| S11L | 71.3 |
| V121S | -6.46 |
| E109M | 71 |
